Measurements from different studies.
T1: pre-miR-21 RNA (Homo sapiens); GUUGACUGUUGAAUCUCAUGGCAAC
T2: pre-miR-21 RNA, hairpin loop region (Homo sapiens); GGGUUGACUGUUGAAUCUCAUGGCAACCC
T3: DNA aptamer; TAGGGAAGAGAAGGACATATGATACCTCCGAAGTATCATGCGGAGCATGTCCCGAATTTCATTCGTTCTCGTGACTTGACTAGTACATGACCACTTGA
T4: DNA aptamer; CGAAAACTAGACAGCG
T5: RNA G4 TERRA multimeric G-quadruplex (Homo sapiens); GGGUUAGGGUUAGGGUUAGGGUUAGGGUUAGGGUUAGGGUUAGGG
T6: SNCA 5' UTR IRE RNA A-bulge hairpin (Homo sapiens); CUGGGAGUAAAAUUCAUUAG
T7: DNA aptamer; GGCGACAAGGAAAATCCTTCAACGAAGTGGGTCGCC
T8: DNA aptamer, 8-thienyl-dG at G6; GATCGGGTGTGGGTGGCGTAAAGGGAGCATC
T9: DNA aptamer three adenosine sites; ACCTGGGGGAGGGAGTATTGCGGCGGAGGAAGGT
T10: DNA aptamer; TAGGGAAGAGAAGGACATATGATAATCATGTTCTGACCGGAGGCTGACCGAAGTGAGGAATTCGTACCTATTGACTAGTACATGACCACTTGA

Structure (SMILES) = CN1CCN(c2ccc(-c3ccc4[nH]c(-c5ccc(OCCCC(=O)N6CCN(c7nncc8sccc78)CC6)cc5)nc4c3)cc2)CC1; target = T1, pre-miR-21 RNA (Homo sapiens); test = microscale thermophoresis; Kd = 336 nM
Structure (SMILES) = C=CCN(CC(=O)N[C@@H](CCCNC(=N)N)C(=O)NCC(=O)NCC(N)=O)C(=O)CN(CC1CCCO1)C(=O)CNCCc1c[nH]c2ccccc12 (some centres unmarked); target = T2, pre-miR-21 RNA, hairpin loop region (Homo sapiens); test = in-line cleavage; conditions = pH 8.5, apparent; Kd = 164000 nM
Structure (SMILES) = CC(=O)[C@H]1CC[C@H]2[C@@H]3CCC4=CC(=NOCC(=O)O)CC[C@]4(C)[C@H]3CC[C@]12C; target = T3, DNA aptamer; test = APAA; conditions = NaCl 100 mM; Kd = 7.37 nM
Structure (SMILES) = C[C@H](Cn1cnc2c(N)ncnc21)OCP(=O)(O)O; target = T4, DNA aptamer; test = interferometric free solution assay; conditions = 2 h, 22 °C, NaCl 150 mM, single-site fit; Kd = 1.71 nM
Structure (SMILES) = CN1CCN(c2ccc(-c3nc(-c4ccc(N5C(=O)c6cccc7c(N8CCN(C)CC8)ccc(c67)C5=O)cc4)[nH]c3-c3ccc(N4CCN(C)CC4)cc3)cc2)CC1; target = T5, RNA G4 TERRA multimeric G-quadruplex (Homo sapiens); test = fluorescence titration; Kd = 22200 nM
Structure (SMILES) = CCOC(=O)C1=C(Nc2ccccc2)SC(=Cc2ccc(OCCOCCOCCOCCNC(=O)CCCOc3ccc(-n4c(SCC(=O)Nc5ccc6cn[nH]c6c5)nnc4-c4ccncc4)cc3)c(O)c2)C1=O; target = T6, SNCA 5' UTR IRE RNA A-bulge hairpin (Homo sapiens); test = MST; Kd = 103 nM
Structure (SMILES) = c1ccc([C@H]2CN3CCSC3=N2)cc1; target = T7, DNA aptamer; test = 1H NMR titration; conditions = 500 µM, pH 6.8, 5 °C, KCl 245 mM, average of four imino protons; Kd = 500000 nM
Structure (SMILES) = C[C@@H]1Cc2c(Cl)cc(C(=O)N[C@@H](Cc3ccccc3)C(=O)O)c(O)c2C(=O)O1; target = T8, DNA aptamer, 8-thienyl-dG at G6; test = fluorescence titration; conditions = pH 8.0, 20 °C, K+ 5 mM, with: OTA 3 µM; Kd = 10500 nM
Structure (SMILES) = CCOC(=O)C1=C(Nc2ccccc2)SC(=Cc2ccc(O)c(OCCOCCOCCOCCNC(=O)CCCOc3ccc(-n4c(SCC(=O)Nc5ccc6cn[nH]c6c5)nnc4-c4ccncc4)cc3)c2)C1=O; target = T6, SNCA 5' UTR IRE RNA A-bulge hairpin (Homo sapiens); test = MST; Kd = 97 nM
Structure (SMILES) = Nc1ncnc2c1ncn2[C@@H]1O[C@H](CO)[C@@H](O)[C@H]1O; target = T9, DNA aptamer three adenosine sites; test = ITC; conditions = pH 7.6, 25 °C, Na+ 100 mM, one-site model; Kd = 11000 nM
Structure (SMILES) = C[C@]12CC[C@@H]3c4ccc(O)cc4C(=NOCC(=O)O)C[C@H]3[C@@H]1CC[C@@H]2O; target = T10, DNA aptamer; test = plate-ELAA; conditions = NaCl 100 mM; Kd = 0.87 nM

Excerpt of the above:
Structure (SMILES) = Nc1ncnc2c1ncn2[C@@H]1O[C@H](CO)[C@@H](O)[C@H]1O; target = T9, DNA aptamer three adenosine sites; test = ITC; conditions = pH 7.6, 25 °C, Na+ 100 mM, one-site model; Kd = 11000 nM
Structure (SMILES) = CC(=O)[C@H]1CC[C@H]2[C@@H]3CCC4=CC(=NOCC(=O)O)CC[C@]4(C)[C@H]3CC[C@]12C; target = T3, DNA aptamer; test = APAA; conditions = NaCl 100 mM; Kd = 7.37 nM
